Measured values of several laboratories.
A part holds a random share of what one study measured. Substitutions count along the parent as printed.

Block 1
Target: Ras GTPase-activating protein-binding protein 1, full length (G3BP1, Homo sapiens, UniProt Q13283)
Sequence of UniProt Q13283 (whole entry, looked up): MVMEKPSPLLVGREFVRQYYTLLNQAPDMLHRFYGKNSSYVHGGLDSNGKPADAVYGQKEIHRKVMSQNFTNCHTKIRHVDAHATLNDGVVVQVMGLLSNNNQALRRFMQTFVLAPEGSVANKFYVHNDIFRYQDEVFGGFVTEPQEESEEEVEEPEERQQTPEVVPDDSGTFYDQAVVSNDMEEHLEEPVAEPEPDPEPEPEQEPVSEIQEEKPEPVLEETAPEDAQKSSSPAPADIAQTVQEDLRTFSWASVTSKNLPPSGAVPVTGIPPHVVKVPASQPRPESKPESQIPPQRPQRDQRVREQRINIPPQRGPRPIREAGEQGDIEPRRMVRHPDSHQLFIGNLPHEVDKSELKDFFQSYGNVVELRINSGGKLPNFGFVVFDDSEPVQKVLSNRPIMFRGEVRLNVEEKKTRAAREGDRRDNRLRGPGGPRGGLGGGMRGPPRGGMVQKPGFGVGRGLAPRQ
Method: RNA Bind-n-Seq
Molecule type: RNA
Medium: in vitro
Tested at: 200 nM
Notes: whole 134-nt RNA, ends assumed
With: 150 mM LiCl
Relative to: input library
Direction: higher = stronger binding
Endpoint: log2 enrichment
Each molecule: 7-deaza-guanosine replaces G
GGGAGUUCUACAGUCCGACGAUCUAACUUUAGAGGAGGAUCUGAUGGAUAUGGCAGUGGACGUGGAUUUGGGGAUGGCUAUAAUGGGUAUGGAGGAGGACCUGGAGGUGCCAAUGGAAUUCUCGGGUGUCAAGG: -0.181
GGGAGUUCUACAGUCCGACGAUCCUGUGCUACACAUCGUAUGUACCGAAUCGGGGUUUUUUUGGGGUUUUUGGGGUUUUUGGGGAAAGUAUUAUGUUACGCCGUUCGGAUCUGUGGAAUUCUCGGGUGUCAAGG: 1.47
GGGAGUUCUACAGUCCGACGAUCGCAGGAAGUAAAAACAAAUGGAAAUGCUUCGGAUAGUGGCAGGGGUGGGGGUUGCUAAGCAAAGGGUGGGAUGGGAGUGGGUAAAGAGUUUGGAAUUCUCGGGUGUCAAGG: 0.171
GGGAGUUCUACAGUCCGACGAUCUCAAGUCCUGUGCUACACAUCGUAUGUACCGAAUCGGCCCGGGCCCGGCCCGGGAAAGUAUUAUGUUACGCCGUUCGGAUCUGCACUUCCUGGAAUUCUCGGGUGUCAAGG: -0.316
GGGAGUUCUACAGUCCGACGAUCCAAGUCCUGUGCUACACAUCGUAUGUACCGAAUCGGGAAAAGGGAAAAGGAAAAGGAAAGUAUUAUGUUACGCCGUUCGGAUCUGCACUUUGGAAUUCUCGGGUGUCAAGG: -1.05
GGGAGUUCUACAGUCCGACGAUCAAGUCCUGUGCUACACAUCGUAUGUACCGAAUCGGAAAAAAAGGUUUGGUUUUUGGAAAGUAUUAUGUUACGCCGUUCGGAUCUGCACUUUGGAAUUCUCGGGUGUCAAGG: -2.19
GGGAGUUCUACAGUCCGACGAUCCAAGUCCUGUGCUACACAUCGUAUGUACCGAAUCGGAAAGGGGAAAGGGGAAAGGAAAGUAUUAUGUUACGCCGUUCGGAUCUGCACUUCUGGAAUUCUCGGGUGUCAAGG: 0.0189
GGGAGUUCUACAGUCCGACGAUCCUGUGCUACACAUCGUAUGUACCGAAUCGGGGUUUUUUUGGUUUUUUUGGUUUUUUUGGGGAAAGUAUUAUGUUACGCCGUUCGGAUCUGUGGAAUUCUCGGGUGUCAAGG: 0.949
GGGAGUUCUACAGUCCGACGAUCAGUCCUGUGCUACACAUCGUAUGUACCGAAUCGGGGAAAGGGGUUUGGGGAAAGGGGAAAGUAUUAUGUUACGCCGUUCGGAUCUGCACUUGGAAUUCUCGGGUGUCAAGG: -0.459
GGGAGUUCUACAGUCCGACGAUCAGUCCUGUGCUACACAUCGUAUGUACCGAAUCGGGGCCCCGGGCCCCGGGCCCCGGGAAAGUAUUAUGUUACGCCGUUCGGAUCUGCACUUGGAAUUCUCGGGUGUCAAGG: -1.75
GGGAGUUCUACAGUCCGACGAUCACCAUGCAGGUGGGCAUCUUUGGGAAGUGGGGCAAGGGGGGGAUAGGGAGGGGGGUAACGCUUUGGGAACAGGUGGUCCCAGGUCGUUUCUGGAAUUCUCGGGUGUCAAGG: 0.0783

Block 2
Target: CCNE1, cyclin fold, Cln2 fusion (human)
Method: yeast growth competition, sequencing
Medium: yeast
Notes: weak parent motif
Relative to: not given
Direction: higher = stronger binding
Endpoint: normalised enrichment score
Starting sequence: WEE1 docking peptide (human); HKTFRKLRLFDTP
HKTFRKVRLFDTP [L7V]: -0.288
HKTFRKLRQFDTP [L9Q]: 0.919
HKTFRKLRLFDIP [T12I]: 1.22
HKTFRKLQLFDTP [R8Q]: 1.13
HKTFRKLRLFDLP [T12L]: 0.212
HKTFRKLRLFDTV [P13V]: 1.19
HKTFRKLRHFDTP [L9H]: -0.0923
HKTFRKLELFDTP [R8E]: 0.618
HHTFRKLRLFDTP [K2H]: 0.251
HKTFRKLRLFDTD [P13D]: 0.693
HKTFRKLRMFDTP [L9M]: 0.344
HKTFRYLRLFDTP [K6Y]: 0.654

Block 3
Target: Interferon regulatory factor 5, full length, phosphomimetic (IRF5, Homo sapiens, UniProt Q13568-2, residues 1-514, K96S/S451D/S453D/S456D/S462D)
Method: protein-binding microarray
Molecule type: double-stranded DNA, one strand shown
Medium: in vitro
Tested at: 250 nM
Notes: 60-bp whole probe
With: salmon DNA 0.4 mg/ml
Relative to: random background probes
Direction: higher = stronger binding
Endpoint: log fluorescence
Shared flanks, not repeated: GCCTAGCAC … GTCTTGATTCGCTTGACGCTGCTG
GACGGTTGCGGGTATCGGGACGTGCTA: 0.606 z-score
GGACACGGATGCGGTCTGCCGTGCTAG: -0.534 z-score
GACGGTTCCCATTTCCTGACGTGCTAG: 0.258 z-score
CTCATTTTCATTTTGTGTCTGTGCTAG: 2.82 z-score
TTAGGTCTCCTACTGCTTTCGTGCTAG: 0.675 z-score
TGAGGACTGCTTTTCCTTTAGTGCTAG: -0.0489 z-score
GACGAACTGACTCTCGAGACGTGCTAG: -0.206 z-score
TCAGCTCACACCTGTCATACTGTGCTA: -0.173 z-score
CTCTCTTCACATATAATTTTGTGCTAG: 0.685 z-score
TTGGGACTGGGTTTCGGTTAGTGCTAG: 7.3 z-score
CTAGGTCTCCTTTTCCTTTAGTGCTAG: -0.0126 z-score
TTTGATTTCGGGACTGGATTAGTGCTA: 4.37 z-score
TTGTGTTTGGGCATTTTTCTAGTGCTA: -0.354 z-score
GTAGGACTGGACTTTCGGTTAGTGCTA: 9.04 z-score
TTAAATATCAGTATCGATTAGTGCTAG: 8.42 z-score
TTTGATTTCAGACTGGATTAGTGCTAG: 0.711 z-score
TCAGTTCTAAATATCTTACTGTGCTAG: 0.487 z-score
CTGCCTGCTCAGACTGGGGCGTGCTAG: -0.635 z-score

Mixed results
PhoQ, residues 284 288 289 292 302 303 TTCLQL  fold induction (PhoP, residues 12 14 15 18 19 LHATL (Escherichia coli, UniProt P23836); Sort-seq, item: YFP reporter; E. coli; PhoQ-PhoP variant library, with: 10 µM Mg2+; relative to: high Mg2+ state, higher = stronger signaling): 1.93
